Published values of several laboratories.
A part holds a random share of what one study measured. Positions count from the first letter of the parent shown.

Sample 1
Target: Histone acetyltransferase KAT6A, winged helix 1, GST fusion (KAT6A, Homo sapiens, UniProt Q92794, residues 1-85)
Method: protein binding microarray
Molecule type: double-stranded DNA, one strand shown
Sample: in vitro
Tested at: not given
Setting: 8-mer, flanks averaged, mean of 2 arrays, mostly near background
Reference: not given
Reading: higher = stronger binding
Residues (chain): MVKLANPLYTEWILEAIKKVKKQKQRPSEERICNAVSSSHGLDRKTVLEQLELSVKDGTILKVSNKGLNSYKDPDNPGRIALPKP
| Sequence | E-score |
| --- | --- |
| AAGTGGCT | -0.0796 |
| GTCGTGCA | -0.19 |
| AATGCCTG | -0.269 |
| CAATGTAC | -0.0505 |
| CCTCGTTC | -0.0709 |
| ACTCCGTC | 0.177 |
| GCATATGC | 0.0624 |
| ATGCCGGC | 0.414 |
| GATGATAC | -0.0722 |
| GATTCGAA | -0.088 |
| TAGTTAAA | -0.0527 |
| GAGAGTAA | -0.112 |
| AGTTAAAC | -0.163 |
| ACCCGTCA | 0.326 |

Sample 2
Target: Sal-like protein 4, full length isoform A (SALL4, Homo sapiens, UniProt Q9UJQ4, residues 1-1053)
Sequence of UniProt Q9UJQ4 (whole entry, looked up): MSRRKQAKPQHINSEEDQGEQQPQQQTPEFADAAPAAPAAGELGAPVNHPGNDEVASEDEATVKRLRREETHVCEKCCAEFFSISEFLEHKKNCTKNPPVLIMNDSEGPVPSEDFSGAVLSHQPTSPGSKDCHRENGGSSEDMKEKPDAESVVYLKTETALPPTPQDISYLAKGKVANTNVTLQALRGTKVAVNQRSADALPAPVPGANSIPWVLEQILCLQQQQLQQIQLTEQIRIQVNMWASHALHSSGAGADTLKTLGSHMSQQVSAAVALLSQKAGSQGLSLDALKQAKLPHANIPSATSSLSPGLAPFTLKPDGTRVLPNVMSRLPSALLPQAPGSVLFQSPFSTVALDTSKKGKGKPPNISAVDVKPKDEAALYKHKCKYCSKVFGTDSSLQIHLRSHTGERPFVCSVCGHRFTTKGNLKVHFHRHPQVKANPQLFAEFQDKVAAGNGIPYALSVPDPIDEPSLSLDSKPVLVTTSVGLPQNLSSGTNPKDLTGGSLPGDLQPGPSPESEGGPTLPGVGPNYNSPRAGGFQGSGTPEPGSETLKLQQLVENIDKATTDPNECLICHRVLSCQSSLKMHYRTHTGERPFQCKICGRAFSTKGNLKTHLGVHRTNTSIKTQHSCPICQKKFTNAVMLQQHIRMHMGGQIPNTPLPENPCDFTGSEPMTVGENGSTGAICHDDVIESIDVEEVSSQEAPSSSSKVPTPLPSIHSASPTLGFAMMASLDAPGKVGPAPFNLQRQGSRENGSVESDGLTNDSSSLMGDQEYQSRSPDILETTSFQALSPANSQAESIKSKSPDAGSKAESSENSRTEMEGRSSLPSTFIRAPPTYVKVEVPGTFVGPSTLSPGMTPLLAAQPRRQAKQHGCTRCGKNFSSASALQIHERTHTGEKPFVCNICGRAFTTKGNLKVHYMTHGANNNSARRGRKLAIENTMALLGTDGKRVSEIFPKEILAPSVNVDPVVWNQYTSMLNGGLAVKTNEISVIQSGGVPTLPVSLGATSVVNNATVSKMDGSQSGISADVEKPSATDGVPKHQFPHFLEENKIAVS
Method: universal PBM
Molecule type: double-stranded DNA, one strand shown
Sample: in vitro
Tested at: 600 nM
Setting: 8-mer, flanks averaged, mean of replicates
Reading: higher = stronger binding
| Sequence | E-score |
| --- | --- |
| CACTGAAA | 0.0858 |
| TAAACCTA | 0.108 |
| CGACTTGA | -0.00328 |
| ACATTTTG | 0.253 |
| ATAAGAAA | 0.351 |
| ATCCGCGG | -0.214 |
| CAAGATCG | 0.0223 |
| GTATACTA | 0.142 |
| CTAACTAA | 0.158 |
| CCATCCAC | -0.198 |
| AAAGGAAG | 0.0384 |
| AAGAATGA | 0.243 |
| CTGTGATC | -0.0791 |
| CCGTTCGA | -0.0128 |
| CGGCACTA | -0.246 |
| ACCTTGAC | -0.135 |
| GCCTTACC | -0.141 |
| AGAGTAGA | 0.157 |

Sample 3
Target: ABI1, truncated, D143A, DHFR fusion (Arabidopsis thaliana, UniProt P49597)
Method: DHFR PCA, dose-response
Sample: yeast
Setting: Hill fit, not affinity, not high confidence
With: (+)-ABA, dose series
Reading: lower = more sensitive
Starting sequence: PYL1, truncated, DHFR fusion (Arabidopsis thaliana, UniProt Q8VZS8); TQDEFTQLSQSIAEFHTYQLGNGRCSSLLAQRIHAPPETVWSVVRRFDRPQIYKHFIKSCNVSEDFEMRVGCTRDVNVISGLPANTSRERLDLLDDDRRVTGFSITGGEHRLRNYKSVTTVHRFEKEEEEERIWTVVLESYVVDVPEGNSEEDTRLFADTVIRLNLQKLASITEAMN
| Change | ABA EC50 |
| --- | --- |
| G81T | 202 µM |
| V137Q | 31.1 µM |
| V78H | 0.432 µM |
| V78F | 1.37 µM |
| I105P | 1.09 µM |
| T160D | 1130 µM |
| V143K | 13.7 µM |
| R74W | 846 µM |
| D159Q | 51 µM |
| F47C | 8.67 µM |
| L169S | 33.8 µM |
| F103T | 1170 µM |

Sample 4
Target: Interferon regulatory factor 7, full length, phosphomimetic (IRF7, Homo sapiens, UniProt Q92985, residues 1-503, S101K/S471D/S472D/S475D/S476D/S477D/S483D/S484D/S487D)
Method: protein-binding microarray
Molecule type: double-stranded DNA, one strand shown
Sample: in vitro
Tested at: 250 nM
Setting: 60-bp whole probe
With: salmon DNA 0.4 mg/ml
Reference: random background probes
Reading: higher = stronger binding
All sequences stand within: GCCTAGCAC … GTCTTGATTCGCTTGACGCTGCTG
Construct (chain): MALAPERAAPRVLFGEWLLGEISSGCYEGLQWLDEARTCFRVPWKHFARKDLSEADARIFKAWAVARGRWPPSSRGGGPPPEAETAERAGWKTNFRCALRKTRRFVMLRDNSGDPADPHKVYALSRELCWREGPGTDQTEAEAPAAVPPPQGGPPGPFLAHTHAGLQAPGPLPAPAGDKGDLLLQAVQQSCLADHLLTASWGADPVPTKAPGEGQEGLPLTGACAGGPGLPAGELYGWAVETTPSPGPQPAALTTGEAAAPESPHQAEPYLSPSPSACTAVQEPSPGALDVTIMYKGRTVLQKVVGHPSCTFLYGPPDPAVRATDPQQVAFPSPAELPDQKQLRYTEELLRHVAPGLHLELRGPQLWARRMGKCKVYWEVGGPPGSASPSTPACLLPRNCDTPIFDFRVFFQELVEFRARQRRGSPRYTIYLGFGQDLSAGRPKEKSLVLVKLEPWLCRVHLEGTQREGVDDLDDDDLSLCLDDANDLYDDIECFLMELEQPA
| Sequence | log fluorescence |
| --- | --- |
| CCTCACATGACTGAATGGACGTGCTAG | -0.0817 z-score |
| TTAGATTTCTGGTTTCGATTAGTGCTA | 9.07 z-score |
| GACGGACTGGGATATCGGGACGTGCTA | -0.556 z-score |
| TGGGGTTCACTCCGGTACCCGTGCTAG | -0.406 z-score |
| TCAATTCGTCATTTCACACTGTGCTAG | 0.823 z-score |
| CTTTCTTTTATGCTCTTTCTGTGCTAG | 1.67 z-score |
| GACGGTATCCTTTTCCTGCCGTGCTAG | 0.611 z-score |
| GACGGTTTCGGTCACGGGACGTGCTAG | 3.97 z-score |
| TCAGTTGTAGTTTTCATACTGTGCTAG | 0.491 z-score |
| TTACGTATCGACTATCGGTTAGTGCTA | 0.229 z-score |
| TCATTTTTGCTTACGATACTGTGCTAG | 0.97 z-score |

Repeated from above (sample 3):
| Change | ABA EC50 |
| --- | --- |
| T160D | 1130 µM |
| L169S | 33.8 µM |
| V143K | 13.7 µM |
| F103T | 1170 µM |
| V78H | 0.432 µM |
| G81T | 202 µM |
| F47C | 8.67 µM |
| I105P | 1.09 µM |
